Measurements from different studies.
A part holds a random share of what one study measured. Changes are numbered by the printed parent chain.

Block 1
Target: Ras GTPase-activating protein-binding protein 1, full length (G3BP1, Homo sapiens, UniProt Q13283)
Sequence of UniProt Q13283 (whole entry, looked up): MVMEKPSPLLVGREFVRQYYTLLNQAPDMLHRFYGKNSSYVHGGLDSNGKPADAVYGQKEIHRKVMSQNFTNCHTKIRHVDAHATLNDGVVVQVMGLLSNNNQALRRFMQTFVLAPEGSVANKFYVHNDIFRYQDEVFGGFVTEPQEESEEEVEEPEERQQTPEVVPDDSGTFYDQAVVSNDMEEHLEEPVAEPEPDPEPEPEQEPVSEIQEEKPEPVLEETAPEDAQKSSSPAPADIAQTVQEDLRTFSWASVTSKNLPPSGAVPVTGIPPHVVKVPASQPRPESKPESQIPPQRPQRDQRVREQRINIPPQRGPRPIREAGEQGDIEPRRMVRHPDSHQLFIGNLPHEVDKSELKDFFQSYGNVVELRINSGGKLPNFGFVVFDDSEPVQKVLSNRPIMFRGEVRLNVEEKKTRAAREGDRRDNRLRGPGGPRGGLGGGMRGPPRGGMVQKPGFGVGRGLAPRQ
Method: RNA Bind-n-Seq
Molecule type: RNA
Sample: in vitro
Tested at: 200 nM
Setting: whole 134-nt RNA, ends assumed
Added: 150 mM LiCl
Relative to: input library
Direction: higher = stronger binding
Library: 7-deaza-guanosine replaces G
`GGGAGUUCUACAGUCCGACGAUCCUCAAGUCCUGUGCUACACAUCGUAUGUACCGAAUCGGGGUGGGGUGGGGUGGGAAAGUAUUAUGUUACGCCGUUCGGAUCUGCACUUCCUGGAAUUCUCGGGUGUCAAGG` has a log2 enrichment of -0.783.
`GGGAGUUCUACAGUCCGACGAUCUGGGAGGUGGAUUAUGUUUAUUUUUUUAGCUCAUUUCCAGGGGUGGGAAUUUUUUUUUAAUAUGUGUCAUGAAUAAAGUUGUUUUUGAAAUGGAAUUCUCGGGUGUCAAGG` has a log2 enrichment of -1.01.
`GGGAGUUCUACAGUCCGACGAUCUCAAGUCCUGUGCUACACAUCGUAUGUACCGAAUCGGAAAGGGAAAGGAAAGGGGAAAGUAUUAUGUUACGCCGUUCGGAUCUGCACUUCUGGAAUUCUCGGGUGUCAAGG` has a log2 enrichment of -0.524.
The log2 enrichment of `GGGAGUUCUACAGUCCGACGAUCAAGUCCUGUGCUACACAUCGUAUGUACCGAAUCGGUUUGGUUUUUGGUUUUUUUGGAAAGUAUUAUGUUACGCCGUUCGGAUCUGCACUUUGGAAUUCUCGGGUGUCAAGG` is reported as -0.997.
The log2 enrichment of `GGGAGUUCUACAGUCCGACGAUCACCAUGCAGGUGGGCAUCUUUGGGAAGUGGGGCAAGGGGGGGAUAGGGAGGGGGGUAACACUUUGGGAACAGGUGGUUCCAGGUCGUUUCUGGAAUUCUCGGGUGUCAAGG` is reported as 0.0646.
`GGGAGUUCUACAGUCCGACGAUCAGUCCUGUGCUACACAUCGUAUGUACCGAAUCGGAAAAAGGAAAAAGGGGAAAAAGGAAAGUAUUAUGUUACGCCGUUCGGAUCUGCACUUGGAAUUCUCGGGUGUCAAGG` has a log2 enrichment of -1.17.

Block 2
Target: CCND2, cyclin fold, Cln2 fusion (human)
Method: yeast growth competition, sequencing
Sample: yeast
Setting: weak parent motif
Relative to: not given
Direction: higher = stronger binding
Parent: RBL2 docking peptide (human); STTRRRLFVENDS
For `R6K`, “normalised enrichment score” read 0.11.
For `D12W`, “normalised enrichment score” read 0.181.
Under “normalised enrichment score”, `V9Q` is recorded as -0.257.
`S13L`: “normalised enrichment score” 0.169.
`L7C`: “normalised enrichment score” -0.0733.
Under “normalised enrichment score”, `L7I` is recorded as 0.61.
`L7T`: “normalised enrichment score” -0.0362.
`T2D` — result for “normalised enrichment score”: -0.123.

Block 3
Target: RNA binding protein fox-1 homolog 2, RRM domain, GST-SBP tag (RBFOX2, Homo sapiens, UniProt O43251-10, residues 100-194)
Method: RNA Bind-n-Seq
Molecule type: RNA
Sample: in vitro
Tested at: 365 nM
Setting: natural RNA segment, single round, ends assumed
Relative to: no-protein control
Direction: higher = stronger binding
Target sequence (chain): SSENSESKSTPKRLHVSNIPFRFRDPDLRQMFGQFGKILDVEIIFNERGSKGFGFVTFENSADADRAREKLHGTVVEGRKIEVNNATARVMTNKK
`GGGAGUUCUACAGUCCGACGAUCCAGGGGCCAUGUCAUGUUAUUGGGACUUGGGGCUAAGUGGGAGGUCCUGUCCUUCCCCUCAUCUCUUCCUGGGGUUUCAAGACCAAAGGCAAUGAGGAGAUACACGAUUCUGGAAUUCUCGGGUGCCAA` — result for “RBNS enrichment (R)”: 0.438.
Under “RBNS enrichment (R)”, `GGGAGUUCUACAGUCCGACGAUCGCAGAUACGCUAGGUCUGCAGUUUGAUAUUUUGUAAAAUCCUCAAAAGCAAGGGAAGUGGCUACUUUGGAAUGCUCUUUAUAAUUUUUAUAAGCUGAAUUUUAUAUGUUAUGGAAUUCUCGGGUGCCAA` is recorded as 1.13.
For `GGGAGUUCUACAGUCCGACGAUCCCUGUUCACUUACUGUAUAAUUUAAAAUCAUUUAUGUAGCUGAGACACUUUGAUACUUCAAUUAUAUCGUGAAUGUUUUAUUUUGCUAAAUCAUGUGCCAUGUGUAGGCUUGGAAUUCUCGGGUGCCAA`, “RBNS enrichment (R)” read 1.09.
Under “RBNS enrichment (R)”, `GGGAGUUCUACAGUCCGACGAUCCAGCCAGCCUCUUCUAGAACCCUAGCCCAGGGACUGGAGCAGGAAAGGGACCUUCAAAGUGAAGACUGCCUUGUCCCGCAGCUCCUUCUGGCUUAGAUUGAAAAAUGGGCUGGAAUUCUCGGGUGCCAA` is recorded as 0.329.
`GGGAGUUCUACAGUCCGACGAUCAUGGUUCAGUUCUAGGAAUGUUCUGGAAGAUGCUGUUAAUUUUACUUUAAAAUGAGAAUCUGGUGUUACUGUAUUUUAUCGUUUUCAAUAAAACUUCUUAAGUGUUUUGGUGGAAUUCUCGGGUGCCAA` — result for “RBNS enrichment (R)”: 0.554.
For `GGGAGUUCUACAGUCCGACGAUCAUUGUUGUGUCAGUGUAGAAUAGUGGCAUAAAUAAAUGAAUUAAGCUACAUUUCCAUGCAGGCAUUUGCACUUUGAAGUUAGGGCUGCCCAGUGCCACAUGCAAAGAGUGUGGAAUUCUCGGGUGCCAA`, “RBNS enrichment (R)” read 0.467.
`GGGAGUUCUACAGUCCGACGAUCUGUGAAACCCCAUCUCUGCCAAAAAUACAAAAGUUAGCCGGGCGUAGUGGCACAUGCCUGUAAUCCCAGCUACCCGGGGAGGCUGAGGCAGGAGAAUUGCUUGAACUCAGUGGAAUUCUCGGGUGCCAA`: “RBNS enrichment (R)” 0.565.
`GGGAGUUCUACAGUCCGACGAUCAGCAUUGAAGCUUUUCACCAAAAGAAGUCUCUCCAAAAUAAAUCUUUUGCAGCAAAGUGAUAUUUAUUGAGUUAUGUGGAAAAGAUGGCUUGUAUUUUUCAGAUUAUUACUGGAAUUCUCGGGUGCCAA` — result for “RBNS enrichment (R)”: 1.22.

Further values, each from its own experiment
The fold induction of `PhoQ, residues 284 288 289 292 302 303 SSTLLI` is reported as 1.88 (PhoP, residues 12 14 15 18 19 YHFSH (Escherichia coli, UniProt P23836); Sort-seq, item: YFP reporter; E. coli; PhoQ-PhoP variant library, added: 10 µM Mg2+; relative to: high Mg2+ state, higher = stronger signaling).

A few entries again (block 1):
`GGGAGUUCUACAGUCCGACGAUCAGUCCUGUGCUACACAUCGUAUGUACCGAAUCGGAAAAAGGAAAAAGGGGAAAAAGGAAAGUAUUAUGUUACGCCGUUCGGAUCUGCACUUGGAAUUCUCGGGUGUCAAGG` has a log2 enrichment of -1.17.
`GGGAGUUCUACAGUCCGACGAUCUGGGAGGUGGAUUAUGUUUAUUUUUUUAGCUCAUUUCCAGGGGUGGGAAUUUUUUUUUAAUAUGUGUCAUGAAUAAAGUUGUUUUUGAAAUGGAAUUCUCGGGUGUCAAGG` has a log2 enrichment of -1.01.
The log2 enrichment of `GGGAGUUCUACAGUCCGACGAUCACCAUGCAGGUGGGCAUCUUUGGGAAGUGGGGCAAGGGGGGGAUAGGGAGGGGGGUAACACUUUGGGAACAGGUGGUUCCAGGUCGUUUCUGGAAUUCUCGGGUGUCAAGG` is reported as 0.0646.
